Experimental data collected from several papers.
A part holds a random share of what one study measured.

Sample 1 — technique: universal PBM; molecule type: double-stranded DNA, one strand shown; medium: in vitro; tested at: not given; direction: higher = stronger binding
Target: Sal-like protein 4, full length isoform B (SALL4, Homo sapiens, UniProt Q9UJQ4-2, residues 1-616)
Setting: 8-mer, flanks averaged, mean of replicates
Construct (chain): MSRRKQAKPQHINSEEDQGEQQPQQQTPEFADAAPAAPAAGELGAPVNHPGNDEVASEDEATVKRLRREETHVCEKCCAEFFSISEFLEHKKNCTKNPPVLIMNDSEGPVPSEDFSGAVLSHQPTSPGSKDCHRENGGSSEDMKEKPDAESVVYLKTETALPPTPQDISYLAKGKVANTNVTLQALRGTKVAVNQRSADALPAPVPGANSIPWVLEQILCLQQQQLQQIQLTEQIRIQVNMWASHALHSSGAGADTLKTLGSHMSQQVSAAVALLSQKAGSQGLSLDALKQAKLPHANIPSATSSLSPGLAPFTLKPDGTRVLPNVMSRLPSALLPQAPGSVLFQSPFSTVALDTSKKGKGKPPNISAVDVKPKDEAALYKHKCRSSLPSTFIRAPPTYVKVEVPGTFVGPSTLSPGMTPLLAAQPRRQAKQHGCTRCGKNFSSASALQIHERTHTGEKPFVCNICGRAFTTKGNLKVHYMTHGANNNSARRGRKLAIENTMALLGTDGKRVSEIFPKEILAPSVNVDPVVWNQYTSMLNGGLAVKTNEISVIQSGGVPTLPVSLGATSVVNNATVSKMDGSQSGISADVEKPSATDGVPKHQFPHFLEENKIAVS
With `TAGATTCA` the E-score was 0.0314.
`AGCGGAGG` gave an E-score of -0.3.
The E-score of `AACGCGTG` is reported as -0.086.
With `AGTGCAGA` the E-score was -0.044.
`GGGCAGAA` has an E-score of -0.0684.
The E-score of `AGCCAAGA` is reported as 0.106.

Sample 2 — technique: protein-binding microarray; molecule type: double-stranded DNA, one strand shown; medium: in vitro; tested at: not given; direction: higher = stronger binding
Target: Transcriptional repressor CTCF (CTCF, Homo sapiens, UniProt P49711, residues 1-727, full length assumed)
UniProt P49711, sequence (whole entry, looked up): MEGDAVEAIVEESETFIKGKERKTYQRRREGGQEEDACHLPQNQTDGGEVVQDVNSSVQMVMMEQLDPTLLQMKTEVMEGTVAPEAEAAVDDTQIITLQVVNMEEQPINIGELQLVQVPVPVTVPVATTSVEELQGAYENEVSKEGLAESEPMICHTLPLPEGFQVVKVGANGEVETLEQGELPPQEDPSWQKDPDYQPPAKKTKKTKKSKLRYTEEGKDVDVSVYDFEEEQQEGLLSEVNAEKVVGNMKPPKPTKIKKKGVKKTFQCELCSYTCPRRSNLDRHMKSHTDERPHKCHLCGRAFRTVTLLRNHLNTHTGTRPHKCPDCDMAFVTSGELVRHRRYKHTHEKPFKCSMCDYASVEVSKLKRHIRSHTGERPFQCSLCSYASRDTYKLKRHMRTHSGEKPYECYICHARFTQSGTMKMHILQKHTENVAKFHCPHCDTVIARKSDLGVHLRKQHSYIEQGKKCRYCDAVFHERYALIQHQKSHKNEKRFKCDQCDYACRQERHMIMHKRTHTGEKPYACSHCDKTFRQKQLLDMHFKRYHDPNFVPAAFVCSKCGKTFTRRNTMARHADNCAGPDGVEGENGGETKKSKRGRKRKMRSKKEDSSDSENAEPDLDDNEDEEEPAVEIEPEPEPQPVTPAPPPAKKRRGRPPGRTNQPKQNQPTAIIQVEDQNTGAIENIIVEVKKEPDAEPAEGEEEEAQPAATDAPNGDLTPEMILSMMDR
Setting: k-mer, scored over probes, only values ≥0.25
`AATATAAG` gave an E-score of 0.342.
`GTATTGCA` gave an E-score of 0.288.
`ACGTATAT` gave an E-score of 0.327.
`GCCAAATA` gave an E-score of 0.256.
For `CTGTGCGC`, the E-score was 0.367.

Sample 3 — technique: protein-binding microarray; molecule type: double-stranded DNA, one strand shown; medium: in vitro; tested at: 2200 nM top; setting: 60-bp whole probe; added: salmon DNA 0.4 mg/ml; relative to: random background probes; direction: higher = stronger binding; shared flanks, not repeated: GCCTAGCAC … GTCTTGATTCGCTTGACGCTGCTG
Target: Interferon regulatory factor 7, full length, phosphomimetic (IRF7, Homo sapiens, UniProt Q92985, residues 1-503, S471D/S472D/S475D/S476D/S477D/S483D/S484D/S487D)
UniProt Q92985, sequence (whole entry, unmodified, looked up): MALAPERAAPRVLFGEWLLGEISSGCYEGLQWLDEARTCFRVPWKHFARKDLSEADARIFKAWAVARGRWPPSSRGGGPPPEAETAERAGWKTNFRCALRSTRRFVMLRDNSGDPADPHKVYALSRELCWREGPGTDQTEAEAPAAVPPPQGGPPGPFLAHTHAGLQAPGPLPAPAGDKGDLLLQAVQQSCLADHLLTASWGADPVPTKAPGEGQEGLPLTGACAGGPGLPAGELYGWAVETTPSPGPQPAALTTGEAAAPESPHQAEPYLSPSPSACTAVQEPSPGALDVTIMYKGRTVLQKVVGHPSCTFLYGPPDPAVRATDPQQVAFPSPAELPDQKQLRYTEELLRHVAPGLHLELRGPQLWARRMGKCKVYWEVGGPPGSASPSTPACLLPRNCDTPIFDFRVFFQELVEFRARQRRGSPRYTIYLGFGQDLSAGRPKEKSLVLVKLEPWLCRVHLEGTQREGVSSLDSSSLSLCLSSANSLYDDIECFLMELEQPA
`GTCGATCTCAGTATCGAGACGTGCTAG`: “fitted relative affinity” 0.512 z-score.
For `TTAGATTTCCTTATCCTTTAGTGCTAG`, “fitted relative affinity” read 1.55 z-score.
`GGCGGTATCCTTTTCCTGACGTGCTAG` — result for “fitted relative affinity”: 0.639 z-score.
For `GACGGACTGGGGACTCGGGACGTGCTA`, “fitted relative affinity” read -0.897 z-score.
`GACGAACGGAGTTTCGAGACGTGCTAG`: “fitted relative affinity” 2.32 z-score.

Single results of other studies
With `PhoQ, residues 284 288 289 292 302 303 SSLVEF` the fold induction was 15.1 (PhoP, residues 12 14 15 18 19 VQALL (Escherichia coli, UniProt P23836); Sort-seq, measured: YFP reporter; E. coli; PhoQ-PhoP variant library, added: 10 µM Mg2+; relative to: high Mg2+ state, higher = stronger signaling).

Excerpt of the above (sample 1):
With `AGTGCAGA` the E-score was -0.044.
`AGCGGAGG` gave an E-score of -0.3.
